Experimental data from different studies.
Parts stem from different laboratories: compare values within a part only. Substitutions count along the parent as printed.

Set 1
Target: Ras GTPase-activating protein-binding protein 1, full length (G3BP1, Homo sapiens, UniProt Q13283)
Sequence of UniProt Q13283 (whole entry, looked up): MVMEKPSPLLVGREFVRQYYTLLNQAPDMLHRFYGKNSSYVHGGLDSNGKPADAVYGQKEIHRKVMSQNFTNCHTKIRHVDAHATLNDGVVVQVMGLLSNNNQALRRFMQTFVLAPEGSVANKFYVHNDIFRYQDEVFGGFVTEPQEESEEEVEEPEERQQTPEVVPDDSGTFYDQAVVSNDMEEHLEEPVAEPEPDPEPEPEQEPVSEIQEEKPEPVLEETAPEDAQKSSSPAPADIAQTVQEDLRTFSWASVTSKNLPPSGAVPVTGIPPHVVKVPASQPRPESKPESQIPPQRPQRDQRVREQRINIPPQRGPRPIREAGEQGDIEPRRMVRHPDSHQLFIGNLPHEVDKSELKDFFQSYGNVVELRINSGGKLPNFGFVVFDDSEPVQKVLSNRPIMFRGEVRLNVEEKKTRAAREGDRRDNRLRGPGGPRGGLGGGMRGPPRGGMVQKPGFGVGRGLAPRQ
Technique: RNA Bind-n-Seq
Form: RNA
Medium: in vitro
Concentration: 200 nM
Notes: whole 134-nt RNA, ends assumed
Together with: 150 mM LiCl
Baseline: input library
Reading: higher = stronger binding
All molecules: 7-deaza-guanosine replaces G
All sequences stand within: GGGAGUUCUACAGUCCGACGAUC … UGGAAUUCUCGGGUGUCAAGG
Strand | log2 enrichment
UCCUGUGCUACACAUCGUAUGUACCGAAUCAAAUUUUUAAACCCCCCCAAACCCCCAAAAAAGUAUUAUGUUACGCCGUUCGGAUCUGCA | 0.807
CACAGACAACACGCACCCACACAGACGCAGAGGGAAGGGGUUGGGAUGGGGACAGGGUGCACAGCAGGGCGGGGUAGGACCCCAGCCCCU | 0.00988
AAGUCCUGUGCUACACAUCGUAUGUACCGAAUCGGGGCCCCGGCCCCGGGCCCCGGAAAGUAUUAUGUUACGCCGUUCGGAUCUGCACUU | -1.53
UUUUCUCACGAUGCACCUCCCCCUGGCACUAAGAAAAAGCACUUAUCCAUUGAGCAGCUGAAUGCUCGUCGCAGGAAAGUAUGGCUCAGC | 0.0858
CUGUGCUACACAUCGUAUGUACCGAAUCGGAAAAAAAGGAAAAAAAGGGGAAAAAAAGGGGAAAGUAUUAUGUUACGCCGUUCGGAUCUG | -0.286
CUGUGCUACACAUCGUAUGUACCGAAUCGGGGUUUUUUUGGGUUUUUUUGGGUUUUUUUGGGAAAGUAUUAUGUUACGCCGUUCGGAUCU | 1.3
UAACUUUAGAGGAGGAUCUGAUGGAUAUGGCAGUGGACGUGGAUUUGGGGAUGGCUAUAAUGGGUAUGGACGAGGACCUGGAGGUGGCAA | -0.107
GCAGGAAGUAAACACAAAUGGAAAUGCUUCGGAUAGUGGCAGGGGUGGGGGUUGCUAAGGAAAGGGUGGGAUGGGAGUGGGUAAAGAGUU | -0.0756
ACCAUGCAGGAGGGCAUCUUUGGGAAGUGGGGCAAGGGGGGGAUAGGGAGGGGGGUAACACUUUGGGAACAGGUGGUCCCAGGUCGUUUC | -0.108
AGUCCUGUGCUACACAUCGUAUGUACCGAAUCGGGUUUUUGGGUUUUUGGUUUUUGGAAAGUAUUAUGUUACGCCGUUCGGAUCUGCACU | -0.988
AGUCCUGUGCUACACAUCGUAUGUACCGAAUCGGAAAAAGGGAAAAAGGGGAAAAAGGAAAGUAUUAUGUUACGCCGUUCGGAUCUGCAC | -0.714

Set 2
Target: ABI1, truncated, D143A, DHFR fusion (Arabidopsis thaliana)
Technique: DHFR PCA, deep sequencing
Medium: yeast
Notes: methotrexate growth selection, single substitutions
Together with: (+)-ABA 0.11 µM
Baseline: wild-type fitted maximum
Reading: higher = stronger binding
Parent: PYL1, truncated, DHFR fusion (Arabidopsis thaliana); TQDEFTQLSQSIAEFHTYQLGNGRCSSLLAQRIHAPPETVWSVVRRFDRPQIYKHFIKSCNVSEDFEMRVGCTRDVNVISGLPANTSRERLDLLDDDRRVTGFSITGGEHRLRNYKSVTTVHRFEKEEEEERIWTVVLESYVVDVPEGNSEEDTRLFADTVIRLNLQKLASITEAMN
Substitution | relative binding score
L28M | 23.6%
T17M | 5.09%
R74P | -2.71%
N177V | 50.5%
F124H | 4.65%
G107K | -5.09%
D75S | 24.9%
E130M | 10.7%
D65N | 36.6%
R98A | 6.82%
S171T | 46.1%
E67Q | 35.3%
P36Q | 14.9%
S42E | 36.5%
V62F | 1.01%
L94G | -4.26%
N114P | 0.784%

Set 3
Target: CCNB3, cyclin fold, Cln2 fusion (human)
Technique: yeast growth competition, sequencing
Medium: yeast
Notes: weak parent motif
Baseline: not given
Reading: higher = stronger binding
Parent: RBL1 docking peptide (human); GSAKRRLFGEDPP; partner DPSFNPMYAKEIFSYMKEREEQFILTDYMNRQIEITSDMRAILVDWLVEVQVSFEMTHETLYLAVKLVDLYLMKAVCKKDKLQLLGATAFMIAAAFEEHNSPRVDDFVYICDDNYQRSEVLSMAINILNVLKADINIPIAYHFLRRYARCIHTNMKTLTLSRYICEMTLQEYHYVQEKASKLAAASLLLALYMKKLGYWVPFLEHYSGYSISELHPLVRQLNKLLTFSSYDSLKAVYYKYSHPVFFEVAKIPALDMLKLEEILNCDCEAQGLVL
Substitution | normalised enrichment score
R6T | 0.987
R6H | 0.3
A3T | 0.562
K4M | 0.312
G9E | 0.769
G1W | 1.06
E10D | 1.01
D11K | 0.213
S2Q | 0.312
P13M | 0.259
F8G | -0.24
R6S | 0.517
L7R | -0.0335
A3Q | 0.257
F8K | 0.461
D11P | 0.0717
F8M | -0.16
S2A | 0.594

Set 4
Target: Sal-like protein 4, full length isoform B (SALL4, Homo sapiens, UniProt Q9UJQ4-2, residues 1-616)
Technique: universal PBM
Form: double-stranded DNA, one strand shown
Medium: in vitro
Concentration: not given
Notes: 8-mer, flanks averaged, mean of replicates
Reading: higher = stronger binding
Construct (chain): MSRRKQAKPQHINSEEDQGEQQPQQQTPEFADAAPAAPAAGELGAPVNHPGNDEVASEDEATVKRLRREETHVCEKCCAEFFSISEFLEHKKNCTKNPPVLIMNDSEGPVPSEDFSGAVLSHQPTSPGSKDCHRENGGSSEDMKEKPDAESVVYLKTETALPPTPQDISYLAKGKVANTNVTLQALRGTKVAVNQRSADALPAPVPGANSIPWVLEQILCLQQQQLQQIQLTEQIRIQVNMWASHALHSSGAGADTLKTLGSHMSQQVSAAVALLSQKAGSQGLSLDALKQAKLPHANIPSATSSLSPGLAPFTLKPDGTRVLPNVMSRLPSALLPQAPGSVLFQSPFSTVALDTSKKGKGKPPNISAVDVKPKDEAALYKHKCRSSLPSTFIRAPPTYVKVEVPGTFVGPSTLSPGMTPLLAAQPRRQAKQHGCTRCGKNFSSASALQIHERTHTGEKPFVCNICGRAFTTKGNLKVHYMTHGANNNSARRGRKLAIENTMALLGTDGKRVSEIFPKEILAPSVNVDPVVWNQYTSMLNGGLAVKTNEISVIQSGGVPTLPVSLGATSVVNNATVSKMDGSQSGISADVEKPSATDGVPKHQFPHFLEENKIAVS
Strand | E-score
ATTGTCCG | 0.153
CCAAAACA | 0.128
CATTTACG | 0.0919
AATCAAGC | 0.0724
CCGGAGCA | -0.223
CAAGACTA | 0.173
CTGGGAGC | -0.241
AAGTGAGG | -0.0629
CTTAACAA | 0.252
GGTGCCTA | -0.154
GCACGCGC | -0.113
CGTTTGAC | 0.0001
ACAGGCCG | -0.198
AATCTTCG | 0.233
GTTTATAA | 0.352
ATTACGAA | 0.215
ATGCGCTA | 0.0944
CGGTGAAC | -0.145
AAGTTCAG | 0.0688
ATATTCAC | 0.319
CTCGTACC | 0.0423
GGATGCGA | -0.0371
ACACAAGG | -0.105
GCTGCTCC | -0.363
CCGCTAAA | -0.103

Set 5
Target: Prothrombin, mature alpha-thrombin (F2, Homo sapiens, UniProt P00734)
Technique: aptamer microarray, sandwich
Form: DNA with 2'F-ANA
Medium: in vitro
Concentration: 200 nM
Notes: whole 15-mer aptamer, many near background
Together with: Cy3 exosite-II aptamer, 400 nM
Reading: higher = stronger binding
Strand: GGTTGGTGTGGTTGG
Modification | mean fluorescence intensity [a.u.]
2'F-ANA at 1 2 4 5 6 7 11 14 | 48.8
2'F-ANA at 2 6 10 12 13 14 15 | 81.9
2'F-ANA at 1 2 3 5 6 8 9 10 11 14 | 47.9
2'F-ANA at 1 2 4 5 8 9 11 13 14 15 | 48.9
2'F-ANA at 1 3 4 6 7 9 10 14 15 | 48.3
2'F-ANA at 1 3 4 6 7 8 9 11 12 13 14 | 77.8
2'F-ANA at 1 2 5 6 7 8 10 12 14 | 55
2'F-ANA at 1 2 3 6 9 11 12 | 274
2'F-ANA at 1 2 3 5 6 12 13 14 | 49.8
2'F-ANA at 2 3 5 9 12 13 15 | 129
2'F-ANA at 1 3 4 5 6 8 9 12 15 | 115
2'F-ANA at 1 2 3 4 6 7 10 12 14 | 49.2
2'F-ANA at 3 4 5 6 7 10 11 12 14 15 | 94.8
2'F-ANA at 2 6 10 11 13 14 | 80.6
2'F-ANA at 3 6 7 11 12 13 14 15 | 536
2'F-ANA at 1 4 7 8 9 10 11 12 14 | 49.5
2'F-ANA at 5 6 8 9 10 11 12 13 14 | 50.5
2'F-ANA at 2 8 9 10 11 12 13 | 142
2'F-ANA at 3 5 6 7 8 9 10 11 12 13 14 15 | 51.8
2'F-ANA at 1 2 4 5 6 7 8 9 10 11 13 | 96.8
2'F-ANA at 1 4 7 8 12 13 14 | 59.9
2'F-ANA at 3 4 8 9 11 13 15 | 531
2'F-ANA at 1 6 9 11 12 14 15 | 104
2'F-ANA at 2 5 6 9 10 11 12 | 49.2

Other studies, line by line
Technique: cross-linking MS
Molecule | partner | system | setting | quantity | value
HSPA9 (Homo sapiens, UniProt P38646) | GRPEL1 (Homo sapiens, UniProt Q9HAV7) | – | hits only | interaction screen | cross-linked
CLTB (Homo sapiens, UniProt P09497) | CLTC (Homo sapiens, UniProt Q00610) | cell fractions | together with: DMTMM | cross-linked residues | K204 to E1187
CDH2 (Homo sapiens, UniProt P19022) | CTNNA1 (Homo sapiens, UniProt P35221) | – | hits only | interaction screen | cross-linked

Some of these lines once more (set 2):
Substitution | relative binding score
N177V | 50.5%
D65N | 36.6%
L28M | 23.6%
E67Q | 35.3%
D75S | 24.9%
R74P | -2.71%
P36Q | 14.9%
T17M | 5.09%
R98A | 6.82%
S42E | 36.5%
L94G | -4.26%
G107K | -5.09%
F124H | 4.65%
S171T | 46.1%
N114P | 0.784%
